Results pooled from the literature.
Lines come from different studies, so protocols differ. “And” joins repeats or separate records; there may be more than shown. ± gives the spread as reported.

CC(C)(C)C(=O)OCOP(=O)(OCOC(=O)C(C)(C)C)C1CCCN(O)C1=O (stereo not shown) — TGI (Hs-578T): 8270 nM
Cc1cc(C(=O)Nc2nc3cccc(C)c3n2[C@H]2CCCCN(C(=O)/C=C/CN(C)C)C2)ccn1 — survival (Trypanosoma brucei brucei; 2T1 CLK1 overexpressing; 0.625 µM, compound pretreated; relative to: maximum): 196% and 194% and 185% and 208%
COc1ccccc1-c1n[nH]c2nc(NC3CCN(C(=O)Cc4ccc(F)cc4F)CC3)ncc12 — relative abundance (bead binding, competition bead pull-down, refers to: LINJ.35.2790; Leishmania donovani axenic amastigote extract; 10 µM; relative to: vehicle): 1.07
O=C1NC2(CC2)COc2ncc(F)cc2[C@H]2COCCN2c2ccn3ncc1c3n2 — reticulocytes (Sprague-Dawley rat, female, blood; oral, 10 mg/kg/day, end of recovery, 4-week repeated-dose toxicity; relative to: red blood cells): 1.72 ± 0.94%
O=C(c1cccc(-c2ccc3ncnc(Nc4ccc(OCc5cccc(F)c5)c(Cl)c4)c3c2)c1)N1CCCC1 — EC50 (Plasmodium falciparum; parasite growth, SYBR Green fluorescence; C235 (TM91C235), drug-resistant): 90 nM
CNCCO.O=C(O)C(Cl)Cl — herbicidal inhibition (Xanthium sibiricum; 15 mg/mL, 21 days, pre-emergence, greenhouse): 0%
CCOC(=O)C1(C)Oc2cc(F)ccc2N(C)C1=O (stereo not shown) — inhibition (Arabidopsis thaliana; root length, petri dish germination; Col-0, 1/2 MS medium; 200 µg/mL, 7 days, 22 °C, dark): 100%
O=S(=O)(c1ccc(-c2ccc3ncnc(Nc4ccc(OCc5cccc(Br)c5)c(Cl)c4)c3c2)cc1)N1CCOCC1 — EC50 (Plasmodium falciparum; parasite growth, SYBR Green fluorescence; C235 (TM91C235), drug-resistant): 410 nM
CCOC(=O)C1(Cc2ccccc2)Oc2cc(C)ccc2N(Cc2ccccc2)C1=O (stereo not shown) — root growth inhibition (Arabidopsis thaliana; Col-0; 200 mg/mL): inhibited
CC[C@H](C)CCCCC(=O)N[C@@H](CCN)C(=O)N[C@H](C(=O)N[C@@H](CCN)C(=O)N[C@H]1CCNC(=O)[C@H]([C@@H](C)O)NC(=O)[C@H](CCN)NC(=O)[C@H](CCN)NC(=O)[C@H](CC(C)C)NC(=O)[C@@H](CC(C)C)NC(=O)[C@H](CCN)NC1=O)[C@@H](C)O — MIC fold change (Escherichia coli; daily serial passaging; ATCC 8739; highest sub-MIC, 33 days; relative to: initial MIC): 3.32
CC(C)CC(C(=O)N1CC2(CC1C#N)C(=O)Nc1ccccc12)N(C)C(=O)c1cc2c(F)cc(F)c(F)c2[nH]1 (stereo not shown) — inhibition (Human coronavirus 229E; cytopathic effect; MRC5; 50 nM): 94%
CCOC(=O)C1(Cc2ccc(F)cc2)Oc2cc(F)ccc2N(Cc2ccc(F)cc2)C1=O (stereo not shown) — inhibition (Arabidopsis thaliana; root length, petri dish germination; Col-0, 1/2 MS medium; 200 µg/mL, 7 days, 22 °C, dark): 52.9%
COc1cc(Nc2ncnc3ccc(-c4ccc(S(=O)(=O)N5CCOCC5)cc4)cc23)ccc1OCc1cccc(F)c1 — EC50 (Plasmodium falciparum; parasite growth, SYBR Green fluorescence; W2, drug-resistant): 650 nM

Repeated from above:
COc1cc(Nc2ncnc3ccc(-c4ccc(S(=O)(=O)N5CCOCC5)cc4)cc23)ccc1OCc1cccc(F)c1 — EC50 (Plasmodium falciparum; parasite growth, SYBR Green fluorescence; W2, drug-resistant): 650 nM
CC[C@H](C)CCCCC(=O)N[C@@H](CCN)C(=O)N[C@H](C(=O)N[C@@H](CCN)C(=O)N[C@H]1CCNC(=O)[C@H]([C@@H](C)O)NC(=O)[C@H](CCN)NC(=O)[C@H](CCN)NC(=O)[C@H](CC(C)C)NC(=O)[C@@H](CC(C)C)NC(=O)[C@H](CCN)NC1=O)[C@@H](C)O — MIC fold change (Escherichia coli; daily serial passaging; ATCC 8739; highest sub-MIC, 33 days; relative to: initial MIC): 3.32
